Assay results from different studies.
Protocols differ between the studies behind these lines. Numbers after ± are the reported error.

Substance | test | test system | setting | how to read | endpoint | result
CCO[C@H](COc1ccc(C(F)(F)F)cc1)CSc1ccc(OCC(=O)O)c(C)c1 | circulating triglycerides at vehicle level | Sprague Dawley rats, diet-induced dyslipidemia | added: ACC inhibitor 30 mg/kg |  | dose | ≥ 5 mg/kg
COc1cccc(-c2cc(F)ccc2[C@H]2Cc3nc(N)nc(C)c3C(=O)N2)n1 | FDG-PET, SUVmax reduction | human, advanced solid tumours | dose not given, reduction at least 25% | baseline: baseline | partial metabolic response rate | 17%
CCOC(=O)C=C1SC(NN=C2c3ccccc3-c3nc4cc(F)ccc4nc32)=NC1=O |  | mouse, STZ-induced diabetes | oral, 25 mg/kg, day 3 |  | blood glucose | 410 ± 57.6 mg/dL
Cn1cc(Nc2nccc(-c3ccc4c(c3)CN(C3COC3)CC[C@H]4NC(=O)c3cn(C(C)(C)C)nn3)n2)cn1 | anti-IgD-induced B-cell activation, inhibitor, measured: CD69 | B cells, healthy human volunteers, whole blood ex vivo | vs plasma concentration |  | EC50 | 0.055 µM
CCOc1ccc(C[C@@H](N)C(=O)N[C@@H](Cc2ccccc2)C(=O)NC2CCN(C(=N)N)CC2)cc1.O=C(O)C(F)(F)F.O=C(O)C(F)(F)F |  | rat | sc osmotic pump, 0.58 mg/kg/day, 48 h, added: VEGF 10 ng/eye intravitreal | baseline: baseline | retinal thickness increase | 21.4 ± 4.6 µm
VQWRAIRVRVIR | carboxyfluorescein release | peptide, EYPC vesicles | 10 µg/mL, 250 s, pH 7.4, 25 °C | baseline: Triton X-100 | leakage | 1%
CCCCCCCSc1nnc(COc2ccc3c(c2)NC(=O)CC3)o1 | forced swimming test | mice | 40 mg/kg, 0.5 h | baseline: control | immobility duration decrease | 19.3%
neuropeptide Y |  | Sprague Dawley rat, urethane-anaesthetised | intravenous, 5 nmol |  | heart rate response onset time | 27 ± 5 s
Polymyxin B |  | human whole blood | 125 ng/mL, 4 h, 37 °C, added: E. coli LPS 0.5 ng/mL | baseline: LPS without compound | TNF-α release | 5.2 ± 2.3%
CN(C(=O)c1c(Oc2ccc(F)cc2)nc2ncccn12)c1ccc(Cl)cc1 |  | mouse C57BL/6J diet-induced obese | oral, 9 mg/kg once daily, 4 weeks, added: sitagliptin 1 mg/kg | baseline: vehicle | fasting plasma glucose reduction | 6.5%
insulin lispro | euglycemic clamp | obese type 2 diabetic patients | subcutaneous, 10 units, 8 h |  | maximum glucose infusion rate | 0.6 mg/kg/min
O=C(/C=C(/C=C/c1cccnc1)NCCCO)/C=C/c1cccnc1 | DPPH scavenging |  |  |  | EC50 | > 200 µM
Oc1ncnc2[nH]ncc12 |  | male gout patients, serum | 300 mg, steady state, added: verinurad 10 mg alone or combined | baseline: time-matched baseline | maximum change in serum uric acid | -43%
CC(C)[C@H](NC(=O)[C@@H]1CSSC[C@H](NC(=O)[C@H](CC(=O)O)NC(=O)[C@@H]2CCCN2C(=O)[C@@H](NC(=O)[C@@H](N)CCC(=O)O)[C@@H](C)O)C(=O)N[C@@H](Cc2ccccc2)C(=O)N[C@@H](Cc2c[nH]c3ccccc23)C(=O)N[C@@H](CCCCN)C(=O)N[C@@H](Cc2ccc(O)cc2)C(=O)N1)C(=O)O |  | male Wistar rats, anaesthetised | intracavernous, 0.1 nmol per rat |  | ICP increase AUC | 8.75 ± 2.6 mmHg·s
CC(C)C[C@H](NC(=O)[C@H](CO)NC(=O)[C@H](CCCNC(=N)N)NC(=O)[C@H](CC(=O)O)NC(=O)[C@H](CCC(=O)O)NC(=O)[C@H](C)NC(=O)[C@@H]1CCCN1C(=O)[C@H](C)NC(=O)[C@H](CCC(=O)O)NC(=O)[C@@H]1CCCN1C(=O)[C@@H]1CCCN1)C(N)=O | HPLC-EC | F344 rat, normal, substantia nigra | intranasal, 1000 µg, 5 days/week, 3 weeks |  | dopamine level | 416 ± 71 ng/g
C=CC(=O)N(C)CCOc1c(N)ncnc1-c1cc(F)cc(NC(=O)c2ccc(C3CC3)cc2F)c1C | inhibitor, light transmission aggregometry | human platelet-rich plasma | concentration not given, 30 min, 37 °C, added: CXCL12 or CRP-XL |  | platelet aggregation | inhibited
C[C@H]1C[C@H]2CSC(N)=N[C@@]2(c2nc(NC(=O)c3ccc(OC(F)F)cn3)cs2)CO1 | measured: CSF Aβ1–42 | healthy adults | 275 mg once daily, 14 days, day 15 | baseline: placebo-adjusted baseline | change from baseline | -92.9%
OC(CCN1CCCCC1)(c1ccccc1)C1CC2C=CC1C2 (stereo not drawn) | 0-back reaction time | healthy elderly human, plasma |  |  | EC50 | 0.00672 mg/L
CC(C)NCCCC[C@H](NC(=O)[C@H]1CCC(=O)N[C@@H](Cc2ccccc2)C(=O)N[C@@H](Cc2ccc(O)cc2)C(=O)N[C@@H](CCCCNC(C)C)C(=O)N[C@H](CCCNC(=N)N)C(=O)N[C@@H](Cc2ccc3ccccc3c2)C(=O)NCC(=O)N1)C(N)=O |  | small cell lung cancer patients | subcutaneous, 20 mg/day, second cycle, added: etoposide and carboplatin | baseline: baseline | maximum CD34+ cell count | 22.5 fold
Cc1c(C(=O)NN2CCCCC2)nn(-c2ccc(Cl)cc2Cl)c1-c1ccc(Cl)cc1 |  | rat, diet-induced obese, plasma | peripheral, 10 mg/kg per day, 6 days |  | free fatty acid level | 0.95 ± 0.14 mmol/L
CCCOc1ccc(S(=O)(=O)NCCC2CCCN2C)cc1-c1nc2c(CCC)nn(C)c2c(=O)[nH]1 (stereo not drawn) | ramp cycle exercise test | human adolescents after Fontan palliation | oral, 87.5 mg twice daily, day 5 |  | maximal VO2 | 1.69 ± 0.36 L/h/kg
CC(=O)Nc1cccc(OCc2nnc(SCc3ccccc3C(F)(F)F)o2)c1 | forced swimming test | mice | 40 mg/kg, 0.5 h | baseline: control | immobility duration decrease | 44.4%
COc1ccc2c(c1)c(CC(=O)O)c(C)n2C(=O)c1ccc(Cl)cc1 | multiplex bead immunoassay, measured: IL-7 | CD-1 mice, serum | ip, 20 mg/kg, three-injection regimen, added: LPS 3 mg/kg |  | cytokine level | 11.2 ± 2.7 pg/mL
CC(=O)c1sc(N=C2c3ccccc3-c3nc4cc(F)ccc4nc32)nc1C |  | mouse, STZ-induced diabetes | oral, 25 mg/kg, day 3 |  | blood glucose | 437 ± 51.6 mg/dL
CC12CCC(CC1)C(C)(C)O2 | two-choice feeding trial | Brachylagus idahoensis | 1% dry weight in diet, 72 h, added: monoterpene mixture 1% dry weight |  | proportion of food consumed | 70 ± 0.08%
CS/C(S)=N/CCCC[S+](C)[O-] (racemic) | RT-PCR, measured: Gpx5 | rat, liver | oral gavage, 200 mg/kg, 96 h, dosed for four days | baseline: vehicle | mRNA fold change | 0.528
Ac-LRKLRKRLLRDWLKAFYDKVAEKLKEAF-NH2 (N-acetyl, C-amide) | ELISA | peptide, APP/PS1ΔE9 mice, TBS-soluble brain homogenate | retro-orbital, 50 µg/mouse 3 times weekly, 6 weeks | baseline: saline | ApoE level | increased
O=C1CCc2ccc(OCc3nnc(SCc4ccccc4)o3)cc2N1 | forced swimming test | mice | 40 mg/kg, 0.5 h | baseline: control | immobility duration decrease | 17.8%
insulin glargine |  | female Sprague-Dawley rat, blood | sc, 15 U/kg, 6 weeks |  | HbA1c | 4.46 ± 0.04%
NCC(=O)Nc1cncc(-c2nn3c(=O)cc(N4CCNCC4)nc3s2)c1 | ADP-induced platelet aggregation, inhibitor, sigmoidal Emax model | human, whole blood | added: ADP 20 µM |  | EC50 | 0.0339 mg/L

For quick reference, copied from above:
Substance | test | test system | setting | how to read | endpoint | result
CN(C(=O)c1c(Oc2ccc(F)cc2)nc2ncccn12)c1ccc(Cl)cc1 |  | mouse C57BL/6J diet-induced obese | oral, 9 mg/kg once daily, 4 weeks, added: sitagliptin 1 mg/kg | baseline: vehicle | fasting plasma glucose reduction | 6.5%
insulin lispro | euglycemic clamp | obese type 2 diabetic patients | subcutaneous, 10 units, 8 h |  | maximum glucose infusion rate | 0.6 mg/kg/min
O=C(/C=C(/C=C/c1cccnc1)NCCCO)/C=C/c1cccnc1 | DPPH scavenging |  |  |  | EC50 | > 200 µM
